Measured values of several laboratories.
Protocols differ between the studies behind these lines. Values joined by “and” are separate records of one study, mostly repeats; a detail may differ. Numbers after ± are the reported error. Converted amounts (≈) assume the structure as drawn.

SMILES	tested on	assay	test system	conditions	scale	measurement	result
O=C(O)c1ccc(O)c(O)c1	human immunodeficiency virus 1	viral replication	TZM-bl cells, BaL (CCR5-tropic)	48 h		IC50	> 100 µM
COc1ccc(Oc2ccc(CN(Cc3ccccc3)Cc3cnc4nc(N)nc(N)c4n3)cc2)cc1	Leishmania infantum	amastigote growth	THP-1-derived macrophages	10 µM, 72 h		inhibition	33 ± 10%
CCCCCCCCCC(=O)N[C@@H](Cc1c[nH]c2ccccc12)C(=O)N[C@H](CC(N)=O)C(=O)N[C@@H](CC(=O)O)C(=O)N[C@@H]1C(=O)NCC(=O)N[C@@H](CCCN)C(=O)N[C@@H](CC(=O)O)C(=O)N[C@H](C)C(=O)N[C@@H](CC(=O)O)C(=O)NCC(=O)N[C@H](CO)C(=O)N[C@@H]([C@H](C)CC(=O)O)C(=O)N[C@@H](CC(=O)c2ccccc2N)C(=O)O[C@@H]1C	Enterococcus	broth microdilution	VRE 155, Mueller-Hinton broth, Mg2+ 10 mg/L	16 h, added: Ca2+ 5 mM		MIC	0.25 µg/mL (≈ 0.154 µM)
CCCCN(Cc1c(-c2ccccn2)nc2ccc(C)cn12)c1ccc(F)cc1	Leishmania infantum		macrophages, MHOM/MA(BE)/67/ITMAP263, amastigote			IC50	5.94 µM and 9.04 µM
O=C1C(Cl)=C(n2ccnc2)C(=O)c2ccccc21	Bacillus cereus		MTCC 430	10 µg/mL		zone of inhibition	8 mm
O=C(O)c1cccc(Cn2ccc3cc(-c4ccc5ccn(Cc6cccc(C(=O)O)c6)c5c4)ccc32)c1	human immunodeficiency virus 1	viral replication, MAGI cell	MAGI cells, Ba-L	CCR5-tropic		EC50	18.2 µM
COc1ccc(S(=O)(=O)Nc2cc(OC)c(NC(=O)CCl)cc2OC)cc1	Leishmania infantum		axenic amastigotes		relative to: IC50 HeLa over IC50 amastigotes	selectivity index	2.6
O=C1OC[C@H]2OC(O)[C@H](O)[C@@H](O)[C@@H]2OC(=O)c2cc(O)c(O)c(O)c2-c2c(O)c(O)c3oc(=O)c4c(c(O)c(O)c5oc(=O)c2c3c54)-c2c1cc(O)c(O)c2O (mixture of isomers)	Streptococcus gordonii	broth microdilution				MBC/MIC ratio	2
O=C(O)c1cc(O)c2c(c1)C(=O)c1cccc(O)c1C2=O	HK-2 co-cultured with HepaRG	MTT		266.67 µM, 48 h	relative to: untreated control	viability	20 ± 11.5%
CC(=O)NC[C@H]1CN(c2ccc(N3CCOCC3)c(F)c2)C(=O)O1	Staphylococcus epidermidis		methicillin-resistant, 10 isolates	pH 5.5		MIC50	1 µg/mL (≈ 2.96 µM)
Fc1ccc(Nc2c(-c3ccccn3)nc3ccc(C4CC4)cn23)cc1	Leishmania infantum		macrophages, MHOM/MA(BE)/67/ITMAP263, amastigote			IC50	5.08 µM and 8.11 µM
O=C1/C(=C/c2ccc(O)cc2O)NC(=S)N1c1ccccc1	Bacillus cereus		ATCC 14579	concentration not given		inhibition zone diameter	15 ± 0.83 mm
COc1c(O)cc2c(c1O)C(=O)c1c(cc(C)c(O)c1OC)C2=O	HK-2 co-cultured with HepaRG	MTT		266.67 µM, 48 h	relative to: untreated control	viability	21.3 ± 4.36%
Cn1cc(-c2ccc(-c3cncc(Cl)c3N3CCC4(CCNC4=O)CC3)cc2)cn1	COLO 205	gene expression, microarray, item: CD59 mRNA		concentration not given, 2 h	relative to: untreated cells	log2 fold change	1.72
CC(C)(C)N/N=C/c1ccc(-c2ccc(/C=N/NC(C)(C)C)cc2)cc1	Candida and Aspergillus			concentration not given, strain panel		antifungal activity	inactive
Fc1ccc(Nc2c(-c3ccc(F)cn3)nc3ccccn23)cc1	Leishmania infantum		macrophages, MHOM/MA(BE)/67/ITMAP263, amastigote			IC50	24.5 µM and 5.66 µM
N#Cc1ccc(N2CCN(S(=O)(=O)c3ccc(Cl)cc3)CC2)cc1NCc1ccncc1	Aedes aegypti			100 µM, 48 h, 1 instar larvae		larval mortality	> 80%
Nc1nc(-c2ccccc2)nc2[nH]nc(Nc3ccc(C(F)(F)F)cc3)c12	coxsackievirus B3		31-1-93, NMRI mice, CVB3 chronic myocarditis	oral, 100 mg/kg twice daily, day 17, dosed days 3 to 10, score scale 0 to 7	direction not given	clinical score	0.4
COc1ccn2c(Nc3ccccc3F)c(-c3ccncn3)nc2c1	Leishmania infantum		macrophages, MHOM/MA(BE)/67/ITMAP263, amastigote			IC50	9.51 µM and 8.64 µM
CC(C)C[C@H](NC(=O)OCc1ccccc1)C(=O)N[C@H](C=O)C[C@@H]1CCCNC1=O	human rhinovirus 16	cytopathic effect, SRB	MRC5	72 h		EC50	6.2 ± 0.8 µM
Cc1ccn2c(CNc3ccc(F)cc3)c(-c3ccccn3)nc2c1	Leishmania infantum		MHOM/MA(BE)/67/ITMAP263	120 h	relative to: CC50 macrophages over EC50 amastigotes	selectivity index	5
CC(C)n1ncc2c(C(=O)NCC3(C)CNC3)cc(C3CC3)nc21	coxsackievirus A6	CPE	RD	0.05 µM		cell protection	1.3% and 5.28%
COc1ccn2c(Cl)c(-c3ccccn3)nc2c1	Leishmania infantum		macrophages, MHOM/MA(BE)/67/ITMAP263, amastigote			IC50	32.5 µM and 9.51 µM
CC(C)C[C@H](NC(=O)C[C@H](O)[C@H](CC(C)C)NC(=O)[C@H](Cc1c[nH]cn1)NC(=O)CNC(=O)[C@@H](NC(=O)[C@H](C)NC(=O)[C@H](Cc1c[nH]c2ccccc12)NC(=O)[C@H](CCC(N)=O)NC(=O)[C@@H](Cc1ccccc1)NC(=O)COCCOCCNC(=O)CCC(C(=O)O)N1CCN(CC(=O)O)CCN(CC(=O)O)CCN(CC(=O)O)CC1)C(C)C)C(N)=O (stereo partly drawn) [lutetium-177 labelled]			BALB/c nu/nu mice, female, muscle	100 pmol, 30 min, time course 0.5 h, added: PA 300 µg		tissue uptake	0.4 ± 0.1 %ID/g

A few entries again:
SMILES	tested on	assay	test system	conditions	scale	measurement	result
N#Cc1ccc(N2CCN(S(=O)(=O)c3ccc(Cl)cc3)CC2)cc1NCc1ccncc1	Aedes aegypti			100 µM, 48 h, 1 instar larvae		larval mortality	> 80%
CC(C)C[C@H](NC(=O)OCc1ccccc1)C(=O)N[C@H](C=O)C[C@@H]1CCCNC1=O	human rhinovirus 16	cytopathic effect, SRB	MRC5	72 h		EC50	6.2 ± 0.8 µM
